{"data": "Measured values gathered from unrelated publications", "organism": "Staphylococcus aureus", "note": "Compare with care: the assays were run in different laboratories. Values joined by “and” are separate records of one study, mostly repeats; a detail may differ."}
{"Structure (SMILES)": "CC[C@H](C)[C@H](NC(=O)[C@@H](NC(=O)CN)C(C)C)C(=O)N[C@@H](Cc1ccccc1)C(=O)N[C@@H](CC(N)=O)C(=O)N[C@@H](C)C(=O)N[C@@H](CC(C)C)C(=O)N[C@@H](CCCCN)C(=O)NCC(=O)N[C@H](C(=O)N[C@@H](C)C(=O)N[C@@H](CCCCN)C(=O)N[C@H](C(=O)N[C@H](C(=O)N[C@@H](C)C(=O)N[C@@H](C)C(=O)N[C@@H](CCC(N)=O)C(=O)N[C@@H](CC(C)C)C(=O)N[C@@H](CC(C)C)C(=O)N[C@@H](CCCCN)C(=O)N[C@@H](CCCCN)C(=O)N[C@@H](C)C(=O)N[C@@H](CCCNC(=N)N)C(=O)N[C@H]1CSSC[C@@H](C(=O)O)NC(=O)[C@H](CO)NC(=O)[C@H](CCCCN)NC(=O)[C@H](CC(=O)O)NC(=O)[C@H](CC(C)C)NC(=O)[C@H](CCCCN)NC1=O)C(C)C)[C@@H](C)O)C(C)C", "test system": "MRSA NCTC 12493, Mueller-Hinton broth", "setting": "with: CaCl2 2.5 mM", "MIC": "2 µM"}
{"Structure (SMILES)": "COc1cc(/C=N/N2C(=O)c3ccccc3NC2c2ccc(O)c(OC)c2)ccc1O (stereo not shown)", "assay": "microbial growth, broth dilution", "test system": "MRSA", "setting": "24 h, drug-resistant strain, clinical isolate", "MIC": "> 256 µg/mL"}
{"Structure (SMILES)": "N=C(N)NCCC[C@@H]1NC(=O)[C@H](CCCNC(=N)N)NC(=O)[C@H](CCCNC(=N)N)NC(=O)[C@H](CCCNC(=N)N)NC(=O)[C@H](Cc2c[nH]c3ccccc23)NC(=O)[C@H](CCCNC(=N)N)NC(=O)[C@H](CCCNC(=N)N)NC(=O)[C@@H](N)CCCCn2cc(nn2)C[C@@H](C(N)=O)NC1=O", "test system": "ATCC 25923", "setting": "18 to 24 h, no serum", "MIC": "7.8 µg/mL"}
{"Structure (SMILES)": "NCCCC[C@@H]1NC(=O)[C@@H](CCCCN)NC(=O)[C@H](CCCCN)NC(=O)[C@@H](CCCCN)NC(=O)[C@H](Cc2c[nH]c3ccccc23)NC(=O)[C@@H](Cc2c[nH]c3ccccc23)NC(=O)[C@@H](N)CSCc2ccc(cc2)CSC[C@@H](C(N)=O)NC(=O)[C@@H](Cc2c[nH]c3ccccc23)NC(=O)[C@H](Cc2c[nH]c3ccccc23)NC(=O)[C@@H](CCCCN)NC1=O", "test system": "COL MRSA", "MIC": "16 to 32 µg/mL"}
{"Structure (SMILES)": "CN1C(=O)[C@@H]2NC(=O)[C@@H]3NC(=O)[C@@H](c4ccc(O)cc4)NC(=O)[C@H](NC(=O)C(NCc4cccc(C(F)(F)F)c4)c4ccc(O)cc4)Cc4c[nH]c5cc(ccc45)-c4cc3cc(c4O)Oc3ccc(cc3)C[C@H]1C(=O)N[C@@H](C(=O)O)c1ccc(O)c(c1)Oc1ccc2cc1 (stereo partly shown)", "test system": "ATCC 33591 MRSA, Mueller-Hinton broth", "MIC": "8 µg/mL"}
{"Structure (SMILES)": "COc1ccc2cc3[n+](cc2c1OCCCOc1ccc(Cl)cc1)CCc1cc2c(cc1-3)OCO2", "assay": "microbial growth", "test system": "ATCC43300", "setting": "drug-resistant strain, clinical isolate", "MIC": "4 µg/mL"}
{"Structure (SMILES)": "c1ccc(CN2CCOCCOCCN(CCCCCCCCCCN3CCOCCOCCN(CCCCCCCCCCN4CCOCCOCCN(Cc5ccccc5)CCOCCOCC4)CCOCCOCC3)CCOCCOCC2)cc1", "assay": "microbial growth", "MIC": "6 µM"}
{"Structure (SMILES)": "O=[N+]([O-])[O-].S=c1[nH]cnc2[nH]cnc12.[Ag+].c1ccc(P(c2ccccc2)c2ccccc2)cc1.c1ccc(P(c2ccccc2)c2ccccc2)cc1", "assay": "agar dilution", "test system": "methicillin-resistant", "setting": "24 h, 37 °C", "MIC": "1250 µg/mL"}
{"Structure (SMILES)": "CCn1cc(C(=O)NCCCCCC(=O)N[C@@H](CCCNC(=N)N)C(=O)N[C@@H](CCCNC(=N)N)C(=O)N[C@@H](Cc2c[nH]c3ccccc23)C(=O)N[C@@H](CCC(N)=O)C(=O)N[C@@H](Cc2c[nH]c3ccccc23)C(=O)N[C@@H](CCCNC(=N)N)C(N)=O)c(=O)c2cc3c(cc21)OCO3", "assay": "broth microdilution", "test system": "ATCC 25923", "setting": "24 h, 37 °C", "MIC": "37 µM and 39 µM"}
{"Structure (SMILES)": "N=C(N)NCCC[C@@H]1NC(=O)[C@H](CCCNC(=N)N)NC(=O)[C@H](CCCNC(=N)N)NC(=O)[C@H](Cc2c[nH]c3ccccc23)NC(=O)[C@H](Cc2c[nH]c3ccccc23)NC(=O)[C@H](Cc2c[nH]c3ccccc23)NC(=O)[C@H](Cc2c[nH]c3ccccc23)NC(=O)[C@H](CCCNC(=N)N)NC1=O", "assay": "broth microdilution", "test system": "MRSA ATCC 43300, TSB", "setting": "overnight", "MIC": "1.95 µM"}
{"Structure (SMILES)": "CC[C@H](C)[C@H](NC(=O)[C@H](CCCN)NC(=O)[C@H](CC(N)=O)NC(=O)[C@H](CC(C)C)NC(=O)[C@H](Cc1ccccc1)NC(=O)[C@H](CCCN)NC(=O)[C@H](CCCCNC(=N)N)NC(=O)[C@H](CC(C)C)NC(=O)[C@H](CC(C)C)NC(=O)[C@H](CCCN)NC(=O)[C@H](CCCCNC(=N)N)NC(=O)[C@H](CC(C)C)NC(=O)CNC(C)=O)C(=O)N[C@@H](CCCN)C(=O)N[C@@H](CCCCNC(=N)N)C(N)=O", "assay": "broth microdilution", "test system": "multidrug-resistant", "MIC": "3.12 µM"}
{"Structure (SMILES)": "CC(C)C[C@@H]1NC(=O)[C@H](C)NC(=O)[C@@H]2NC(=O)[C@H](CO)NC(=O)[C@@H](CCCCN)NC(=O)[C@H](NC(=O)[C@@H](N)Cc3ccccc3)CCCCCCCC[C@H](NC1=O)C(=O)O[C@H]2C", "test system": "MRSA ATCC 700698", "setting": "TFA salt", "MIC": "16 µg/mL"}
{"Structure (SMILES)": "CCCCCCCCCCCCCC(=O)N[C@H](CCN)C(=O)N[C@H](C(=O)N[C@H]1CCNC(=O)[C@H](CC(=O)O)NC(=O)[C@H](C(C)C)NC(=O)[C@@H](Cc2ccc(O)cc2)NC(=O)[C@H](CCN)NC(=O)[C@H](CC(C)C)NC(=O)[C@@H](Cc2ccccc2)NC(=O)[C@H](CCN)NC(=O)[C@H](CC(C)C)NC1=O)[C@@H](C)O", "assay": "broth microdilution", "test system": "BNCC 186335", "MIC": "4 µg/mL"}
{"Structure (SMILES)": "CN[C@@H]1[C@H](O)[C@H](NC)[C@H]2O[C@]3(O)[C@H](O[C@@H]2[C@H]1O)O[C@H](C)C[C@@]3(O)CNCc1ccc(F)cc1", "test system": "MRSA NRS70", "MIC": "50 µg/mL"}
{"Structure (SMILES)": "CN1C(=O)[C@@H]2NC(=O)[C@@H]3NC(=O)[C@@H](c4ccc(O)cc4)NC(=O)[C@H](NC(=O)C(NCc4ccc(O)c(O)c4O)c4ccc(O)cc4)Cc4c[nH]c5cc(ccc45)-c4cc3cc(c4O)Oc3ccc(cc3)C[C@H]1C(=O)N[C@@H](C(=O)O)c1ccc(O)c(c1)Oc1ccc2cc1 (stereo partly shown)", "test system": "ATCC 33591 MRSA, Mueller-Hinton broth", "MIC": "16 µg/mL"}
{"Structure (SMILES)": "O=C(NCCNCCO)c1cn(Cc2ccccc2)c2cc(OCc3ccc(C(F)(F)F)cc3)c(Cl)cc2c1=O", "test system": "ATCC 43300 MRSA", "how to read": "≥80% growth inhibition", "MIC": "< 0.25 µg/mL"}
{"Structure (SMILES)": "CC[C@H](C)[C@H](N)C1=N[C@H](C(=O)N[C@@H](CC(C)C)C(=O)N[C@H](CCC(=O)O)C(=O)N[C@H](C(=O)N[C@H]2CCCCNC(=O)[C@H](CC(N)=O)NC(=O)[C@@H](CC(=O)O)NC(=O)[C@H](Cc3c[nH]cn3)NC(=O)[C@@H](Cc3ccc4ccccc4c3)NC(=O)[C@H]([C@@H](C)CC)NC(=O)[C@@H](CCCN)NC2=O)[C@@H](C)CC)CS1", "assay": "broth microdilution", "test system": "ATCC 29213, LB medium", "setting": "18 h, 37 °C, with: ZnSO4 0.3 mM", "MIC": "0.5 µg/mL"}
{"Structure (SMILES)": "CC(CCCOC(=O)CCC[N+](C)(C)C)C1CCC2C3CCC4CC(OC(=O)CCC[N+](C)(C)C)CCC4(C)C3CCC12C (stereo not shown)", "assay": "microbial growth", "test system": "ATCCBAA44 MRSA", "setting": "drug-resistant strain", "MIC": "9.7 µg/mL"}
{"Structure (SMILES)": "COc1ccc2ccc3c(c2c1)C=[N+]1C2CCCCC2[N+]2=Cc4cccc(OC)c4[O][Au-]21[O]3.F[P-](F)(F)(F)(F)F (stereo not shown)", "assay": "bacterial growth, broth microdilution", "test system": "vancomycin-intermediate", "setting": "24 h", "MIC": "20 µM"}
{"Structure (SMILES)": "CC[C@H](C)[C@H](NC(=O)[C@@H](Cc1ccccc1)NC)C(=O)N[C@@H](CO)C(=O)N[C@H](CCC(N)=O)C(=O)N[C@@H](C(=O)N[C@H](C(=O)OC[C@H](N)C(=O)N[C@H]1C(=O)N[C@@H](C)C(=O)N[C@@H](C2CCCCC2)C(=O)N[C@@H]([C@@H](C)CC)C(=O)O[C@H]1C)[C@@H](C)CC)[C@@H](C)CC", "assay": "broth microdilution", "test system": "ATCC 700698, MRSA, brain heart infusion broth", "setting": "16 h, 37 °C", "MIC": "0.5 µg/mL"}
{"Structure (SMILES)": "CC[C@H](C)[C@H](NC(=O)[C@@H](NC(=O)[C@H](CCCCN)NC(=O)CNC(=O)[C@@H](NC(=O)[C@@H](NC(=O)[C@H](CO)NC(=O)[C@@H](NC(=O)[C@@H](NC(=O)[C@@H]1CCCN1C(=O)[C@@H](NC(=O)[C@@H](NC(=O)CN)[C@@H](C)CC)[C@@H](C)CC)[C@@H](C)CC)[C@@H](C)CC)[C@@H](C)CC)[C@@H](C)CC)[C@@H](C)CC)C(N)=O", "assay": "broth microdilution", "test system": "USA300 MRSA", "MIC": "> 34 µM"}
{"Structure (SMILES)": "CC(=O)N[C@@H](CCCNC(=N)N)C(=O)N[C@@H](Cc1c[nH]c2ccccc12)C(=O)N[C@@H](CCCNC(=N)N)C(=O)N[C@@H](Cc1c[nH]c2ccccc12)C(=O)N[C@@H](Cc1c[nH]c2ccccc12)C(=O)N[C@@H](CCCCN)C(=O)N[C@@H](Cc1ccccc1)C(=O)N[C@H](C(N)=O)C(C)C", "test system": "MSSA ATCC 29213, MEM medium", "setting": "overnight, 37 °C", "MIC": "1.4 µM"}
{"Structure (SMILES)": "CC(C)[C@H](NC(=O)[C@H](CCCCN)NC(=O)[C@H](CCCNC(=N)N)NC(=O)[C@@H](NC(=O)[C@H](C)NC(=O)[C@H](CC(N)=O)NC(=O)[C@H](CCCNC(=N)N)NC(=O)[C@@H](NC(=O)[C@H](CCCCN)NC(=O)[C@H](CCCCN)NC(=O)[C@@H](NC(=O)[C@@H](NC(=O)[C@H](CCCNC(=N)N)NC(=O)[C@H](CCCNC(=N)N)NC(=O)[C@H](Cc1c[nH]c2ccccc12)NC(=O)[C@H](Cc1c[nH]c2ccccc12)NC(=O)CN)[C@@H](C)O)C(C)C)C(C)C)C(C)C)C(=O)O", "assay": "bacterial growth", "test system": "MRSA, ESBL-positive", "setting": "18 h", "MIC": "32 µg/mL"}
{"Structure (SMILES)": "O=C(c1ccccc1O)c1[nH]c(Cl)c(Cl)c1-n1c(C(=O)c2ccccc2O)cc(Cl)c1Cl", "assay": "microbial growth, broth dilution", "test system": "NCTC8325", "setting": "20 h", "MIC": "0.25 µg/mL"}
{"Structure (SMILES)": "C[C@@H](N)[C@H](O)CCCCCCCC(=O)CCCCCCCCCCCCCC[C@@H](O[C@@H]1O[C@H](CO)[C@H](O)[C@H](O)[C@H]1O)[C@H](N)CO", "assay": "microbial growth, resazurin", "test system": "ATCC12600", "setting": "6 h", "MIC": "11.3 µM"}
{"Structure (SMILES)": "CC[C@H](C)[C@@H]1NC(=O)[C@@H]([C@@H](C)O)NC(=O)CNC(=O)[C@H](CC(=O)O)NC(=O)CNC(=O)[C@H](CC(=O)O)NC(=O)CNC(=O)[C@H]2CCCCN2C(=O)[C@@H](NC(=O)[C@H](CC(N)=O)NC(=O)/C=C/CCCCCCCCCC(C)C)CNC(=O)[C@@H]2CCCN2C1=O", "test system": "MRSA USA300", "setting": "16 h, 37 °C, with: Ca2+ 10 mM", "MIC": "4 µg/mL"}
{"Structure (SMILES)": "CCCCCCN1C(=O)/C(=N\\NC(=N)N)c2cc(C)ccc21", "assay": "broth microdilution", "test system": "BAA41 MRSA", "setting": "18 h, 37 °C", "MIC": "12 µg/mL"}
{"Structure (SMILES)": "CC[C@H](C)c1occ2c(=O)c(C(=O)O)c(O)cc-2c1C", "assay": "microbial growth, broth dilution", "test system": "ATCC29213", "MIC": "50 µM"}
